Assay results pooled from the literature.
Each numbered part is a random draw from the data of one study; scales do not carry over between parts. Several values in a cell are separate wells, animals, samples, runs or records.
UniProt P33981, sequence (whole entry, looked up): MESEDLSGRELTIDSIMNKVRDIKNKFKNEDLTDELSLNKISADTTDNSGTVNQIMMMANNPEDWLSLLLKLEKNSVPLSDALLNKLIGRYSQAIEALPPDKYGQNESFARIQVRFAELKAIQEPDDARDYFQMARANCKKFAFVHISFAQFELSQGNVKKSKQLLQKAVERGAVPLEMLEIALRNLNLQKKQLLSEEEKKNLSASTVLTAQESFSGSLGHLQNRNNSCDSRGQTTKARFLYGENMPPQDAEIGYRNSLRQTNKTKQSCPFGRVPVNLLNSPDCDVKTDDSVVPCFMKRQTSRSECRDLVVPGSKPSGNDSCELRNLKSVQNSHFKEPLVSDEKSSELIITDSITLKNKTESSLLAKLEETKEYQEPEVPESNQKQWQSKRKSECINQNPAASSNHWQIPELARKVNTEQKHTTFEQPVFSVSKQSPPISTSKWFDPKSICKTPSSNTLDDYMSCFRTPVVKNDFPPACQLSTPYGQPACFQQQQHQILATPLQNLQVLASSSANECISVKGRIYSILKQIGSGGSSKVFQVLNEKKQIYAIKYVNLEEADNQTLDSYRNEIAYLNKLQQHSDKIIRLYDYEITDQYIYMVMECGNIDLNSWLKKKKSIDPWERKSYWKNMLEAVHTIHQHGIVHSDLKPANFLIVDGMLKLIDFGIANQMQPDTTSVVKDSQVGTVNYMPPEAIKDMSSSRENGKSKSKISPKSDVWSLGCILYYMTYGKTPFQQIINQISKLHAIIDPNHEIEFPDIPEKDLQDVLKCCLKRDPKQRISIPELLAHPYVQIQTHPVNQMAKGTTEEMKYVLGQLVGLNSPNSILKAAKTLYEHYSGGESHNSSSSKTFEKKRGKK
UniProt O15530, sequence (whole entry, looked up): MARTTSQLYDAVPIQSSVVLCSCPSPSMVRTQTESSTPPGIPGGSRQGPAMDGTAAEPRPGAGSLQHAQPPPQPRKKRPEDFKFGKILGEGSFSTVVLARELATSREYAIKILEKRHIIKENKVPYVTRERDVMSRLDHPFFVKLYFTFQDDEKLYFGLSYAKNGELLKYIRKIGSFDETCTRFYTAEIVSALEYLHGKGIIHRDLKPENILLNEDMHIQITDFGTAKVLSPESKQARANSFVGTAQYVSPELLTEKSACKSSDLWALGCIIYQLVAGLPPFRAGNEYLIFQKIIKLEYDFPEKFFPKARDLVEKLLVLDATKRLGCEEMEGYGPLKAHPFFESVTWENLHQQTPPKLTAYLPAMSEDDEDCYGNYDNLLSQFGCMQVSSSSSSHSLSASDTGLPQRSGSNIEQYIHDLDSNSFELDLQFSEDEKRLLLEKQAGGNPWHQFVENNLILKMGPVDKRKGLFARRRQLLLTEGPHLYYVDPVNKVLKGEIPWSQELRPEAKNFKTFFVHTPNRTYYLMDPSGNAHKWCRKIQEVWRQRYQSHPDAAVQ
UniProt P07949, sequence (whole entry, unmodified, looked up): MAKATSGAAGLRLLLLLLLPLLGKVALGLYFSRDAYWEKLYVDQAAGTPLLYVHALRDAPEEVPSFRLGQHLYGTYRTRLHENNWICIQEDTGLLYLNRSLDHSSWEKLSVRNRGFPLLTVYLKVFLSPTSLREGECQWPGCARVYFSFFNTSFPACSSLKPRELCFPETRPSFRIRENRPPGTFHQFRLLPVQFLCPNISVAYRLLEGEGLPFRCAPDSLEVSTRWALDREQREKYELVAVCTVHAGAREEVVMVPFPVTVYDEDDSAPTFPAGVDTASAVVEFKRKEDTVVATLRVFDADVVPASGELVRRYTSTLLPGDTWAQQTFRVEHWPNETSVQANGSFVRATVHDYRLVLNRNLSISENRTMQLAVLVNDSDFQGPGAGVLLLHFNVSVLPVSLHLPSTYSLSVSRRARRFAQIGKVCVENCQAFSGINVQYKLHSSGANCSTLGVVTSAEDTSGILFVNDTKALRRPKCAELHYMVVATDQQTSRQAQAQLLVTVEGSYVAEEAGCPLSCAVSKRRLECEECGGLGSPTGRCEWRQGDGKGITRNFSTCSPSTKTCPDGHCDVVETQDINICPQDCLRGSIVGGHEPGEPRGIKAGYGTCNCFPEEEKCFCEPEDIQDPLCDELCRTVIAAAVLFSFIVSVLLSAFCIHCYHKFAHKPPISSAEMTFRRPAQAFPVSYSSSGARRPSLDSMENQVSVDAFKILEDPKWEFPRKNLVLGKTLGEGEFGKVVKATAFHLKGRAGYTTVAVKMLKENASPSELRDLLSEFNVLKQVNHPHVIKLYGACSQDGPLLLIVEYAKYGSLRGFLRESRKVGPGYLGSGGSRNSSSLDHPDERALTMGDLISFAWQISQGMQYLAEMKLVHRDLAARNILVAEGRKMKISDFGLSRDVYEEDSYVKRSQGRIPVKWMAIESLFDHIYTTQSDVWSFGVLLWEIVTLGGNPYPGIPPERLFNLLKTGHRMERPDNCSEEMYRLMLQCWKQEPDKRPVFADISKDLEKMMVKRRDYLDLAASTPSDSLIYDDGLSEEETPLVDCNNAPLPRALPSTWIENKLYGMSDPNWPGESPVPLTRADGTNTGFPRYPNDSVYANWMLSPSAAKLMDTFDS
UniProt P53350, sequence (whole entry, looked up): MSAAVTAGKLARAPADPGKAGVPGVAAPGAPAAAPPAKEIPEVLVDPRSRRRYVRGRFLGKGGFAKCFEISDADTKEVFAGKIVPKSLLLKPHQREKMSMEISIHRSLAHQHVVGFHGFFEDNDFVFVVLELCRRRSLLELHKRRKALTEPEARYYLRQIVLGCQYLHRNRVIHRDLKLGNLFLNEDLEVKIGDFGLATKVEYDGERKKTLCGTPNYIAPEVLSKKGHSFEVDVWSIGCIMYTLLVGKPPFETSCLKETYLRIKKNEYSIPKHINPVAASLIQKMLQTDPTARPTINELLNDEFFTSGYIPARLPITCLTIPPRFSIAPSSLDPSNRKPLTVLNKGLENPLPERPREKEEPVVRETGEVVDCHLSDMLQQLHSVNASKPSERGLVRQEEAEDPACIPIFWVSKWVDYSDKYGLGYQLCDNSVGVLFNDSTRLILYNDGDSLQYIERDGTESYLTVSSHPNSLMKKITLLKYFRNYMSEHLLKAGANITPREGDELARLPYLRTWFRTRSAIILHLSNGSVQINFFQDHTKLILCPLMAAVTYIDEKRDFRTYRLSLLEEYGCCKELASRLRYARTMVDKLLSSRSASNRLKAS
UniProt Q8TDX7, sequence (whole entry, looked up): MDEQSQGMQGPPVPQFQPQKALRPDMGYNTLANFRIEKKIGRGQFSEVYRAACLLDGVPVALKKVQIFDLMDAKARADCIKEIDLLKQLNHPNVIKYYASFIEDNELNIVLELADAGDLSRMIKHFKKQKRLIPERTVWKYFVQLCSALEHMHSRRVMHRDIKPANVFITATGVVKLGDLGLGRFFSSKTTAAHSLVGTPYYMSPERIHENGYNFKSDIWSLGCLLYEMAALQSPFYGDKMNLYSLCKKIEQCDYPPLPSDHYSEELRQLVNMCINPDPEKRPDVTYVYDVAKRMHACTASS
UniProt P53778, sequence (whole entry, looked up): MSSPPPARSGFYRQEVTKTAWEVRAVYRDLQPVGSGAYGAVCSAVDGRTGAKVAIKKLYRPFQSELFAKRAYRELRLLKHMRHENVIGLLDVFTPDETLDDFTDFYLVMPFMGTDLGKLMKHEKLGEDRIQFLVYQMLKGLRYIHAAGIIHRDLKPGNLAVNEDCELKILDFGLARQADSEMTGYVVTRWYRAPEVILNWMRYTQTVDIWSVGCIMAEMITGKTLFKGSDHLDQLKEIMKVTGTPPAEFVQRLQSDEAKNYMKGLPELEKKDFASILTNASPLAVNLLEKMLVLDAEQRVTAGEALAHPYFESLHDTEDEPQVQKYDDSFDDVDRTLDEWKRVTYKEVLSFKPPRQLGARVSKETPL

Set 1 — read-out: cell-free assay; method: competition with immobilised ligand; tested at: 0.1 µM; measurement: remaining binding
Compound: Cn1nc(C(=O)NCc2ccc(C(=O)O)cc2)cc1-c1ccc2[nH]ccc2c1
TTK (Homo sapiens, UniProt P33981): 88%
EGFR (Homo sapiens, UniProt P00533, T790M): 100%
NEK7 (Homo sapiens, UniProt Q8TDX7): 98%
PDPK1 (Homo sapiens, UniProt O15530): 100%

Set 2 — read-out: enzyme activity; action: inhibitor; tested at: 0.5 µM; baseline: control; measurement: remaining activity
Target: Mitogen-activated protein kinase 14 (MAPK14, Homo sapiens, UniProt Q16539)
UniProt Q16539, sequence (whole entry, looked up): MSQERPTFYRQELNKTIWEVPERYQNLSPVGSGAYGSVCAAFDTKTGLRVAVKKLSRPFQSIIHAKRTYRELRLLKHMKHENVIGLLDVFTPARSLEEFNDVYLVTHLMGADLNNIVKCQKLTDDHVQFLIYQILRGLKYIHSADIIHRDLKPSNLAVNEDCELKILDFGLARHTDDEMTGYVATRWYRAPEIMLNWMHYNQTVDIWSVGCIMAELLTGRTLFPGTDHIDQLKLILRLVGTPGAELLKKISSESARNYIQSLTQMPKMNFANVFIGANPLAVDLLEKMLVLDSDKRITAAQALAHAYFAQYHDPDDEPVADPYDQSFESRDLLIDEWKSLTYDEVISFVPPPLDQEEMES
COc1cc2ncnc(Nc3ccc(F)c(Cl)c3)c2cc1OCCCN1CCOCC1: 74.6%
O=S(=O)(c1cccc2cnccc12)N1CCCNCC1: 104%
O=C1NC(=O)C(c2cn(CCCn3ccnc3)c3ccccc23)=C1Nc1ccccc1: 88.3%
CNC(=O)c1cc(Oc2ccc(NC(=O)Nc3ccc(Cl)c(C(F)(F)F)c3)cc2)ccn1: 40.2%
Cn1c2ccccc2c2c3c(c4c5ccccc5n(CCC#N)c4c21)CNC3=O: 93.5%
CCOC(=O)c1c(C)[nH]c(/C=C2\C(=O)Nc3ccccc32)c1C: 134%
Nc1ncnc2n[nH]c(Nc3ccc(F)cc3)c12: 79.5%
NCCNc1ncc(C(N)=O)c(Nc2cccc(C(F)(F)F)c2)n1: 114%
O=C(Nc1cccc(Nc2cc(Nc3cccc(C(F)(F)F)c3)ncn2)c1)C1CC1: 98.2%
O=c1c2ccccc2[nH]c(=S)n1CCN1CCC(=C(c2ccc(F)cc2)c2ccc(F)cc2)CC1: 99%
Nc1ccc2ncnc(NCCc3ccc(Oc4ccccc4)cc3)c2c1: 95.7%
O=C1NC(=O)C(c2cn(CCCO)c3ncccc23)=C1c1cnccn1: 107%
COc1ccc(OC)c2c(=S)c3ccccc3[nH]c12: 104%
COc1cc2ncnc(Nc3ccc(Oc4ccccc4)cc3)c2cc1OC: 103%
Cc1cccc(-c2[nH]c(C(C)(C)C)nc2-c2ccc3c(c2)OCO3)n1: 89.7%
Cc1ccc(NC(=O)c2ccc(CN3CCN(C)CC3)cc2)cc1Nc1nc(-c2cccnc2)cs1: 98.1%
Cc1ccc(Nc2nccc(N(C)c3ccc4c(C)n(C)nc4c3)n2)cc1S(N)(=O)=O: 91.2%
CO[C@H]1C[C@@H]2CC[C@@H](C)[C@@](O)(O2)C(=O)C(=O)N2CCCC[C@H]2C(=O)O[C@H]([C@H](C)C[C@@H]2CC[C@@H](O)[C@H](OC)C2)CC(=O)[C@H](C)/C=C(\C)[C@@H](O)[C@@H](OC)C(=O)[C@H](C)C[C@H](C)/C=C/C=C/C=C/1C: 99.1%
OCC(O)CCON=C1C(c2c(O)[nH]c3ccccc23)=Nc2ccccc21 (stereo not shown): 101%
O=C(O)c1ccc2c3c1cccc3c(=O)n1c3ccccc3nc21: 99%
Cc1nc(-c2ccccc2)c(-c2ccncc2)o1: 76.3%
CC(C)[C@H](CO)Nc1nc(Nc2cc(N)cc(Cl)c2)c2ncn(C(C)C)c2n1: 98.9%
COc1cc2nccc(Oc3ccc(NC(=S)NC(=O)c4ccccc4C)cc3)c2cc1OC: 80.2%
Nc1[nH]nc2nc3ccccc3nc12: 96.6%

Set 3 — measurement: tumour volume
SMILES: CC(=O)N[C@@H](Cc1c[nH]c2ccccc12)C(=O)N[C@@H](CCC(=O)C=[N+]=[N-])C(=O)OC(C)C
mice, MC-38 tumour rechallenge; 0.26 mg/kg, day 11 after injection: 0 mm3 and 4 mm3
mouse, EL4 tumour; subcutaneous, 0.1 mg/kg, day 16: 887 mm3 and 735 mm3 and 581 mm3 and 655 mm3 and 2230 mm3 and 121 mm3
mice, MC-38 tumour rechallenge; 1 mg/kg, day 53 after injection: 0 mm3
mouse, EL4 tumour; subcutaneous, 1 mg/kg, day 16: 0 mm3 and 69.6 mm3
mice, MC-38 tumour rechallenge; 0.26 mg/kg, day 25 after injection: 0 mm3

Set 4 — Structure (SMILES): CCOc1ccc(Nc2c3c(nc4ccccc24)CCC3)cc1; organism: Leishmania donovani; measurement: inhibition
parasite killing; DD8, promastigotes; 6.66 µM, 72 h: 88% and 91% and 84%
parasite growth, high-content imaging; MHOM/IN/80/DD8, amastigotes in THP-1 cells; 80 µM: 100% and 101% and 102%
parasite killing; DD8, intracellular amastigotes; 8 µM, 48 h: 99% and 98% and 96%
parasite killing; DD8, intracellular amastigotes; 0.2 µM, 24 h: 6% and 5% and 3%

Set 5 — host: human; medium: microsomes or S9; tested at: 2 µM; time: 0.5 h; measurement: remaining compound
COc1ccc(-c2cc(CNC(=O)c3ccc(=O)[nH]n3)no2)cc1OC: 66%
Cc1c(C(=O)O)[nH]c(S(=O)(=O)NCCO)c1C: 49.1%
Cc1noc(C)c1Cc1c(C(=O)N2CCC(n3c(C)cnc3C3CCC3)C2)noc1C (stereo not shown): 5.82%
O=C1CCCc2nc(Nc3ccc(F)cc3)ncc21: 7.22%
Cc1csc(C2=C(N)N(CC(C)C)CC2=O)n1: 78.7%

Set 6 — organism: Sarcocystis neurona; read-out: parasite growth; tested at: 10 µM; time: 96 h; notes: second screen; baseline: untreated; measurement: log2 fold change
CC[C@H](C)C(=O)O[C@H]1CCC=C2C=C[C@H](C)[C@H](CC[C@@H]3C[C@@H](O)CC(=O)O3)[C@H]21: 0.26
CS(=O)(=O)OCCCCOS(C)(=O)=O: 0.0661
C#C[C@]1(O)CC[C@H]2[C@@H]3CCC4=Cc5oncc5C[C@]4(C)[C@H]3CC[C@@]21C: -0.22

Set 7 — measurement: remaining binding
SMILES: CN1CCN(C(=O)c2ccc(NC(=O)Nc3ccc(N(C)c4ccnc(Nc5ccc(CS(C)(=O)=O)cc5)n4)cc3)cc2)CC1
RET (Homo sapiens, UniProt P07949, M918T); binding; 1 µM: 0.2%
PLK1 (Homo sapiens, UniProt P53350); binding; 1 µM: 100%
MAPK12 (Homo sapiens, UniProt P53778); binding, competition with immobilised ligand; 1 µM: 100%
FLT3 ITD; KINOMEscan; 1000 nM; baseline: control: 0.3%

Repeated from above (set 2):
COc1ccc(OC)c2c(=S)c3ccccc3[nH]c12: 104%
Nc1ncnc2n[nH]c(Nc3ccc(F)cc3)c12: 79.5%
NCCNc1ncc(C(N)=O)c(Nc2cccc(C(F)(F)F)c2)n1: 114%
O=C(Nc1cccc(Nc2cc(Nc3cccc(C(F)(F)F)c3)ncn2)c1)C1CC1: 98.2%
CCOC(=O)c1c(C)[nH]c(/C=C2\C(=O)Nc3ccccc32)c1C: 134%
CO[C@H]1C[C@@H]2CC[C@@H](C)[C@@](O)(O2)C(=O)C(=O)N2CCCC[C@H]2C(=O)O[C@H]([C@H](C)C[C@@H]2CC[C@@H](O)[C@H](OC)C2)CC(=O)[C@H](C)/C=C(\C)[C@@H](O)[C@@H](OC)C(=O)[C@H](C)C[C@H](C)/C=C/C=C/C=C/1C: 99.1%
O=C(O)c1ccc2c3c1cccc3c(=O)n1c3ccccc3nc21: 99%
O=C1NC(=O)C(c2cn(CCCn3ccnc3)c3ccccc23)=C1Nc1ccccc1: 88.3%
